Assay results collected from several papers.
Compare with care: the assays were run in different laboratories.
Cell line: SF-268

The growth percent of `CCCN1CCN(c2ccc3[nH]c(-c4ccc5[nH]c(-c6ccc(OCC)c(OCC)c6)nc5c4)nc3c2)CC1` is reported as 15.8% (SRB; 10 µM, 48 h).
The cell growth of `CCOC(=O)CSc1nc(-c2ccc(Cl)cc2)c2c(NC(=O)c3ccccc3)nnc-2[nH]1` is reported as 97.4% (SRB; 10 µM, NCI60 single-dose screen; relative to: untreated).
`C#C[C@@]1(O)[C@@H](CO)O[C@@H](n2ccc3c(N)ncnc32)[C@@H]1O` has a TGI of 26.1 µM (SRB; NCI-60 screen).
The cell growth of `Cc1n[nH]c2nc(-c3ccc(Cl)cc3)c3c(NC(=O)c4ccccc4)nnc-3n12` is reported as 116% (SRB; 10 µM, NCI60 single-dose screen; relative to: untreated).
With `O=C(/C=C/C=C/C=C/C1CCCCC1)NC1=C[C@@](O)(/C=C/C=C/C=C/C(=O)NC2=C(O)CCC2=O)[C@@H]2O[C@@H]2C1=O` the GI50 was 20.8 µM (cell growth, CellTiter-Glo; 78 h).
`NNc1nc(-c2ccc(Cl)cc2)c2c(NC(=O)c3ccccc3)nnc-2[nH]1` gave a cell growth of 109% (SRB; 10 µM, NCI60 single-dose screen; relative to: untreated).
`CCN(CC)c1ccc(C=NNC(=O)CSc2nc3ccccc3c(=O)n2Cc2ccc(S(N)(=O)=O)cc2)c(O)c1` gave a TGI of > 100 µM (NCI five-dose screen).
For `O=C1NC(=NCc2cccs2)S/C1=C\c1ccc2ncccc2c1`, the IC50 was > 10 µM (MTS; NCI60 panel).
`CCOc1ccc(-c2nc3cc(-c4nc5cc(N6CCN(C)CC6)ccc5[nH]4)ccc3[nH]2)cc1OCC` has a growth percent of 19.3% (SRB; 10 µM, 48 h).
`O=C1NCCc2[nH]c(-c3ccncc3)cc21` gave an IC50 of > 10 µM (MTS; NCI60 panel).
`CCCCN1CCN(c2ccc3[nH]c(-c4ccc5[nH]c(-c6cc(OC)c(OC)c(OC)c6)nc5c4)nc3c2)CC1` has a growth percent of 71.8% (SRB; 10 µM, 48 h).
For `CSc1nc(-c2ccc(Cl)cc2)c2c(NC(=O)c3ccccc3)nnc-2[nH]1`, the cell growth was 101% (SRB; 10 µM, NCI60 single-dose screen; relative to: untreated).
`CCCN1CCN(c2ccc3[nH]c(-c4ccc5[nH]c(-c6ccc(C(F)(F)F)cc6)nc5c4)nc3c2)CC1` has a growth percent of -70.2% (SRB; 10 µM, 48 h).
`O=C(Nc1nnc2n3c(=S)[nH][nH]c3nc(-c3ccc(Cl)cc3)c1-2)c1ccccc1` gave a cell growth of 103% (SRB; 10 µM, NCI60 single-dose screen; relative to: untreated).
With `C#C[C@@]1(O)[C@@H](CO)O[C@@H](n2cc(F)c3c(N)ncnc32)[C@@H]1O` the TGI was 78.3 µM (SRB; NCI-60 screen).
`CCCN1CCN(c2ccc3nc(-c4ccc5nc(-c6cc(OC)ccc6OC)[nH]c5c4)[nH]c3c2)CC1` gave a growth percent of 106% (SRB; 10 µM, 48 h).
`O=C(Nc1nnc2n3c(nc(-c4ccc(Cl)cc4)c1-2)SCC3=O)c1ccccc1` has a cell growth of 92.8% (SRB; 10 µM, NCI60 single-dose screen; relative to: untreated).
With `CCCCN1CCN(c2ccc3[nH]c(-c4ccc5[nH]c(-c6ccc(OCC)cc6)nc5c4)nc3c2)CC1` the growth percent was 77.1% (SRB; 10 µM, 48 h).
`Cn1cncc1C1=CN(c2ncnc3[nH]cnc23)CCS1` has a TGI of 64.6 µM (CNS cancer).

Excerpt of the above:
`CCCCN1CCN(c2ccc3[nH]c(-c4ccc5[nH]c(-c6cc(OC)c(OC)c(OC)c6)nc5c4)nc3c2)CC1` has a growth percent of 71.8% (SRB; 10 µM, 48 h).
For `CSc1nc(-c2ccc(Cl)cc2)c2c(NC(=O)c3ccccc3)nnc-2[nH]1`, the cell growth was 101% (SRB; 10 µM, NCI60 single-dose screen; relative to: untreated).
